Assay results gathered from unrelated publications.
Each line is one published result; not all experiments were run side by side.
JAK2: Tyrosine-protein kinase JAK2 (JAK2, Homo sapiens, UniProt O60674)
Chain of UniProt O60674 (whole entry, looked up): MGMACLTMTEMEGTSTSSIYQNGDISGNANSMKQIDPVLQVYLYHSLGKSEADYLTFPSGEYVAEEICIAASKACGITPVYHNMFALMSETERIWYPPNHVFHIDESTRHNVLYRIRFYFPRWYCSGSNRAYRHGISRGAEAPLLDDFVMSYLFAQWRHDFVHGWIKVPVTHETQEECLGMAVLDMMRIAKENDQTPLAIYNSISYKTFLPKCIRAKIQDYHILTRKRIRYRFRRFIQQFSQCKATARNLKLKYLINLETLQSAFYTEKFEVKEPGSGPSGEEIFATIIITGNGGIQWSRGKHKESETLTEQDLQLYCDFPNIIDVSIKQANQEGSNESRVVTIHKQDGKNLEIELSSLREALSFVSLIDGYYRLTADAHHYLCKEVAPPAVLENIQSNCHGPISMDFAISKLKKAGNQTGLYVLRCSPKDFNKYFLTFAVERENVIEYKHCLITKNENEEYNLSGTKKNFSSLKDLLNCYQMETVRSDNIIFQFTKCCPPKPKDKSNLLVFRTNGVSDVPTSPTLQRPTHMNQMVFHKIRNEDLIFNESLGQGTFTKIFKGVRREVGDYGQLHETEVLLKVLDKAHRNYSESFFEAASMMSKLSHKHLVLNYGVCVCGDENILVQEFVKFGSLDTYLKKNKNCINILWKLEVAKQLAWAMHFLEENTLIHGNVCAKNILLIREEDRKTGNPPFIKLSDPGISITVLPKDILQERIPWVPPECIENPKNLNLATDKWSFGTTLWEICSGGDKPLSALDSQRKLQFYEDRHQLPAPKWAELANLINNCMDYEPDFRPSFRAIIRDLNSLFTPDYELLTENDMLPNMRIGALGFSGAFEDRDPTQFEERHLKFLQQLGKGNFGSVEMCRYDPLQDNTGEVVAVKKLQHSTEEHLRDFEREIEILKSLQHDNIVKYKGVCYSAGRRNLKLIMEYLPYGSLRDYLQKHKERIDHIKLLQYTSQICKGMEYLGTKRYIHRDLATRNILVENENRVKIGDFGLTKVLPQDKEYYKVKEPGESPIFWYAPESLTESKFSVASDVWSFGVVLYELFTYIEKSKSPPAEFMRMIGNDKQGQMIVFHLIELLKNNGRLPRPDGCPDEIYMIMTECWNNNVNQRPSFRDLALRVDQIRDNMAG

Compound | target | test | endpoint | value
Cc1cnc2nc1Nc1cccc(c1)COC/C=C/COCc1cc(ccc1OCCN1CCCCC1)N2 | JAK2 | enzyme activity, inhibitor, FRET | IC50 | 1.65 nM
Cc1cnc(Nc2ccc3c(c2)CCN(C(=O)/C=C/C(=O)C(C)C)C3)nc1-c1cnn(C(C)C)c1 | JAK2 | enzyme activity, inhibitor, ADP detection | IC50 | 11.8 nM
Cc1cnc2nc1Nc1cccc(c1)COCCCCOCc1cc(ccc1OCCN1CCCC1)N2 | JAK2 | enzyme activity, inhibitor, FRET | IC50 | 240 nM
CCN(CC)CC(=O)Nc1cccc(-n2cc(-c3ccc4ccc(-c5cn(-c6cccc(NC(=O)CN(CC)CC)c6)nn5)cc4c3)nn2)c1 | JAK2 | enzyme activity, inhibitor | IC50 | > 10000 nM
Cc1cnc(Nc2ccc3c(c2)CCN(C(=O)/C=C/C(=O)c2ccc(Cl)cc2)C3)nc1-c1cnn(C(C)C)c1 | JAK2 | enzyme activity, inhibitor, ADP detection | IC50 | 0.41 nM
Cc1cnc(Nc2ccc(C3CCN(C)CC3)c(F)c2)nc1Nc1ccc(Cl)c(NS(=O)(=O)C(C)(C)C)c1 | JAK2 | enzyme activity, inhibitor | IC50 | 3.9 nM
Cc1c[nH]c2nccc(-c3ccc(C(=O)N[C@@H]4c5c(F)cc(C(F)F)cc5C[C@@H]4O)cn3)c12 | Tyrosine-protein kinase JAK2, JH1 (JAK2, Homo sapiens, UniProt O60674) | binding, competition with immobilised ligand | Kd | 27.5 nM
CCC(CC)C(=O)/C=C/C(=O)N1CCc2cc(Nc3ncc(C)c(-c4cnn(C(C)C)c4)n3)ccc2C1 | JAK2 | enzyme activity, inhibitor, ADP detection | IC50 | 9.65 nM
Cc1nn(-c2cccc(N)c2)c(=O)c2cnc(Nc3ccc(N4CCNCC4)cc3)nc12 | JAK2 | enzyme activity, inhibitor | IC50 | > 10000 nM

For quick reference, copied from above:
Compound | target | test | endpoint | value
CCC(CC)C(=O)/C=C/C(=O)N1CCc2cc(Nc3ncc(C)c(-c4cnn(C(C)C)c4)n3)ccc2C1 | JAK2 | enzyme activity, inhibitor, ADP detection | IC50 | 9.65 nM
